Assay results collected from several papers.
Each numbered part is a random draw from the data of one study; scales do not carry over between parts. Changes are numbered by the printed parent chain.

Set 1
Target: ABI1, truncated, D143A, DHFR fusion (Arabidopsis thaliana)
Method: DHFR PCA, deep sequencing
Sample: yeast
Setting: methotrexate growth selection, single substitutions
Together with: (+)-ABA 0.032 µM
Relative to: wild-type fitted maximum
Direction: higher = stronger binding
Measurement: relative binding score
Starting sequence: PYL1, truncated, DHFR fusion (Arabidopsis thaliana); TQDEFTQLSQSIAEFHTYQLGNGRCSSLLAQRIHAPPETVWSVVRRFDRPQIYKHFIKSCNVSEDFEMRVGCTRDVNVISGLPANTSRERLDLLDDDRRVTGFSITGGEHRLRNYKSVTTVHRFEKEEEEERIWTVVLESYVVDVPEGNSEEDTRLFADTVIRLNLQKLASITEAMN
V136D: -1.91%
S9C: 9.35%
S117T: 7.73%
K168V: -2.84%
S42C: 6.66%
K126N: 59.7%
N149K: 8.92%
E64W: -0.434%
R163A: 18.1%
V145Q: -6.71%
S117V: 1.86%
P37L: -3.58%
T1P: 23.3%
A175S: 19.2%
E151K: 38%
H16L: -1.23%
E14M: 0.536%
V44D: 1.13%
T173N: 3.57%
I79Q: 13.2%

Set 2
Target: Histone acetyltransferase KAT6A, winged helix 2, GST fusion (KAT6A, Homo sapiens, UniProt Q92794, residues 85-181)
Method: protein binding microarray
Form: double-stranded DNA, one strand shown
Sample: in vitro
Tested at: not given
Setting: 8-mer, flanks averaged, mean of 2 arrays, mostly near background
Relative to: not given
Direction: higher = stronger binding
Measurement: E-score
Residues (chain): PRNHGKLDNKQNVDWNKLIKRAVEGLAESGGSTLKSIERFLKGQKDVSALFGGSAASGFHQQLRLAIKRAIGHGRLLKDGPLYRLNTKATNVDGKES
AGGGTTTA: 0.0953
TGGTTAAA: -0.0117
ACCACACA: -0.118
GGGCAGTA: -0.0915
CCAGAGCG: -0.00196
GAAACTGC: 0.0152
ACGGTAAC: -0.108
ACGTGATA: -0.232
TATAGACA: 0.129
CGCATAGA: -0.00798
ACACAAGC: -0.00843
CCTACAGA: -0.0798
CACCGAGG: 0.0601
CTGGGTGC: 0.0893
CAGATATC: 0.0726
AGTGTTTC: 0.0765
GATAAGTA: -0.0267
CCCAGCCC: 0.116
GAGTAACC: 0.00966
GAATCTCA: -0.0838
GTGTCGGA: -0.00779
TCAGTAAA: 0.0854
CGTGAGAC: -0.00582
ACCATGTC: -0.0649
ACACGCCG: 0.0229

Set 3
Target: RNA binding protein fox-1 homolog 2, RRM domain, GST-SBP tag (RBFOX2, Homo sapiens, UniProt O43251-10, residues 100-194)
Method: RNA Bind-n-Seq
Form: RNA
Sample: in vitro
Tested at: 365 nM
Setting: natural RNA segment, single round, ends assumed
Relative to: no-protein control
Direction: higher = stronger binding
Measurement: RBNS enrichment (R)
Construct (chain): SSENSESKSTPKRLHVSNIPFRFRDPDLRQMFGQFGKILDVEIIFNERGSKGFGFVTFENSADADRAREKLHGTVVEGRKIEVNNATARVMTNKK
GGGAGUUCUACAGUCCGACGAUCAUUGGUUUUGUGUCCGAGGCUUGUUCCAAGUUUGUCAAUGAGGUUUAUGGAGCCUCCAGAACAGAUGCCAUCUUCCUGAAUGUUGACAUGCCAGUGGGUGUGACUCCUUCUGGAAUUCUCGGGUGCCAA: 0.546
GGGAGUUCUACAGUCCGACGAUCUGUUCUCCUGUUAAGCCUAGAUCUUUCCCUAGUAGAUUGCAAACUCAACAGUCUGUGUGAUCCCAAAGCCAUUCCACUGUAAAUGCCUGGCAGUAAAGAUGGCCCCAGACUGGAAUUCUCGGGUGCCAA: 1.01
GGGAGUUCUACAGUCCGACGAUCAGACCCUCCCCAAUUCUAGUUCUCCUGGUUGGAGAGGGAGGGGCCUGGCCAGCUUCAGCCUACAGCUUUAAAUUCUGUCUGCUCCUAAAUGGGUCCAAAGCUCAGUACUGUGGAAUUCUCGGGUGCCAA: 0.337
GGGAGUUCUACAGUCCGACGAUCCUCACGUGGACUCCCAGUGCGAAGGGGCCCAUGGGUUGGGCUGCAGGCCUGGCCGUGAGCGGGGGCUGCCUGCACGCUCCCCUAGCCUACUCUUGUGUUUAGGGGAUGGUUGGAAUUCUCGGGUGCCAA: 1.27
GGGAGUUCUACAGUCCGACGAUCUAAAUAAUAAAGGUUUUAAUUCAGAUCUAGAAGAAAACUGCACAGUUGAAUGCAGAUUUUUAUCCAUAGAUAACUGUAGUGUUUUGAAAUGAUAGGCCCUACCUUUGAAGUGGAAUUCUCGGGUGCCAA: 1.01
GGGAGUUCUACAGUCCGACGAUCAAAAGAGUGAACAAAUUCAGUGCAGUGUUUUACACAGCUUGGUACCAUGAUAGUACCAGGGACAGGUUUUAAUAGAAAUUUAAGCUAUUUGUAUUACGAACAUAGGAGUGUGGAAUUCUCGGGUGCCAA: 0.355
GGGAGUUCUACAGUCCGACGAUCCUCUUACCUCCAGGCUUUGGUGCUUAACACAAAAUGACUGCAGAUGCCUCUCUGGAAGCCCUAGGCUCCAGGUGCUAUCUCUGUGGGAAGCAGCUACCUAAUUGGCAGGCUGGAAUUCUCGGGUGCCAA: 0.981
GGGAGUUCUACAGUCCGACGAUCCAGUCUUGUUUUGGCAUCAUCCUCAUCAUGUUGUAUUCCAGCUUCUUAAGUGGAAGGAAAAGAGUGCUGAGAAAUGGCUCUGUAUAAUCUAUGGCUAUCCGAAUUCUCUGUGGAAUUCUCGGGUGCCAA: 0.376
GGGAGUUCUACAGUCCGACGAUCAUAUGCUUCUUAAUUAUCAAAUUAUAGUUUCCCAAUUGGGAAACUAAUUGGGGGUGGGUUACAAAACAUUUGAUCCUUGUAAAUACAUUGUACAGAAUAUUUAUUUUUUCUGGAAUUCUCGGGUGCCAA: 0.418
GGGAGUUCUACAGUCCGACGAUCCACAGGUAGACCUGAAUCUGCCCAGCUUGUUGACAGCUCUUGUGUAUACUGUGUUGAAGCCAGACAGAAAAGUAAUGGGGCCACUUCUGAAACCUCUCAGCUGUUGAUCUUGGAAUUCUCGGGUGCCAA: 1.19
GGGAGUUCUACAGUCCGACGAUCUACUUUAGUUGUGGGUGUUAGAGUUUUUGUGUCAUGACUCAGUGUGGUUCACAUUCCUAGUGAGAAGCAGAGAUCUGGAGGUGUGCAGUCCUCAGCCUCACAGCUUCCUUUGGAAUUCUCGGGUGCCAA: 1.09
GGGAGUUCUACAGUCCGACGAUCCCAGUUUAUUAGUUUAAAUCAGUACUUUGCAUAUAAUAAGCAUUCAACAAAAAUUUAUUGACUGAAAUGAAUUUUAAAUGCAUGUGUAUGAACUUGUUUUUCUUAAUCUUUGGAAUUCUCGGGUGCCAA: 1.33

Set 4
Target: CCND1, cyclin fold, Cln2 fusion (human)
Method: yeast growth competition, sequencing
Sample: yeast
Setting: strong parent motif
Relative to: not given
Direction: higher = stronger binding
Measurement: normalised enrichment score
Starting sequence: SCAPER docking peptide (human); SNARRSLNFGGST; partner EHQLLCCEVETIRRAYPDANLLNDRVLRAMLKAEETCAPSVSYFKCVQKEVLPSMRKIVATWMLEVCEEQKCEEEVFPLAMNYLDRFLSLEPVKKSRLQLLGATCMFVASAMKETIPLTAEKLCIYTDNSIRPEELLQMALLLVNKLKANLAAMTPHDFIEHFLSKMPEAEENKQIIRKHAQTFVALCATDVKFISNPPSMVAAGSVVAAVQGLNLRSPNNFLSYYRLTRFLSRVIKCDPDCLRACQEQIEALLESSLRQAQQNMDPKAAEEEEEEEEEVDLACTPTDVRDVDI
S1T: 1.09
A3G: -0.17
N8W: 0.444
L7P: -0.000774
S1C: 0.919
N8M: 0.579
A3V: 0.38
R5H: 0.435
N2H: 0.715
S1W: 0.928
T13G: 0.792
G10M: 0.708
S6D: 0.428
R5K: 0.0356
R5W: -0.0807
S6V: 2.43
N8F: 0.269
F9C: -0.171
R4D: 0.351
R4H: 0.0827
S6K: 3.59
G11N: 0.766
R4I: 1.75
S1P: 0.411
T13E: 1.46

Set 5
Target: Ras GTPase-activating protein-binding protein 1, full length (G3BP1, Homo sapiens, UniProt Q13283)
UniProt Q13283, sequence (whole entry, looked up): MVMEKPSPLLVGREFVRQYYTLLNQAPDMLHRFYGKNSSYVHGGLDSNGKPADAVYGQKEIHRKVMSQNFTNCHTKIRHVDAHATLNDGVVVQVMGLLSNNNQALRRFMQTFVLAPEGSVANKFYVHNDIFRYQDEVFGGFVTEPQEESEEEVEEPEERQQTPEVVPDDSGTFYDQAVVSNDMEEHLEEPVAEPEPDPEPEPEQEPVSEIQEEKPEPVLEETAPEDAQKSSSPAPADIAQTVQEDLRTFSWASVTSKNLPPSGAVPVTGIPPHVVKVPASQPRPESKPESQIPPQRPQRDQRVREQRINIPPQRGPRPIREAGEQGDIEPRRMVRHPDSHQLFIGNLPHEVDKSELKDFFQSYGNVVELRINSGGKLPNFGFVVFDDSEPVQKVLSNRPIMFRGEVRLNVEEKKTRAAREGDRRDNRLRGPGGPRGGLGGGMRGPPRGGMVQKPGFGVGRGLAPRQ
Method: RNA Bind-n-Seq
Form: RNA
Sample: in vitro
Tested at: 200 nM
Setting: whole 134-nt RNA, ends assumed
Together with: 150 mM LiCl
Relative to: input library
Direction: higher = stronger binding
Measurement: log2 enrichment
All molecules: 7-deaza-guanosine replaces G
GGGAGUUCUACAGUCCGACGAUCACCAUGCAGGUGGGCAUCUUUGGGAAGUGGAGCAAGGGGGGGAUAGGGAGGGGGGUAACACUUUGGGAACAGGUGGUCCCAGGUCGUUUCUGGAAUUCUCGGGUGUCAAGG: 0.369
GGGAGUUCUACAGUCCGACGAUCGUCCUGUGCUACACAUCGUAUGUACCGAAUCGGGGCCCCCGGGCCCCCGGGCCCCCGGAAAGUAUUAUGUUACGCCGUUCGGAUCUGCACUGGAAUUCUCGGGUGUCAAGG: -1.98
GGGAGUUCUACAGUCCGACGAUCGCAGGAAGUAAAAACAAAUGGAAAUGCUUCGGAUAGUGGCAGGGGUGGGGGUUGCUAAGGAAAGGGUGGGAUGGGACUGGGUAAAGAGUUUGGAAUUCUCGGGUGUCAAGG: -0.214
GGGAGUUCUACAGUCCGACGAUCGCAGGAAGUAAAAACAAAUGGAAAUGCUUCGGAUAGUGGCAGGGGUGGCGGUUGCUAAGGAAAGGGUGGGAUGGGAGUGGGUAAAGAGUUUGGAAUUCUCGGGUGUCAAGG: 0.145
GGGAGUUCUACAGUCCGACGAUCGAUCUCCGGGCUCAGUUGCAGAUUCUGGCCAACAUGGACAGCCAGCUAAAAGAGCUACAGAGUCAGCAUACCCAUUGUGCCCAGGACCUGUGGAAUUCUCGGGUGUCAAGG: -0.635
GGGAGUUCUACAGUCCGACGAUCACCAUGCAGGUGGGCAUCUUUGGGAAGUGGGGCAAGGGGGGGAUAGGGAGGGGGGUCACACUUUGGGAACAGGUGGUCCCAGGUCGUUUCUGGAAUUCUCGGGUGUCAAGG: 0.287
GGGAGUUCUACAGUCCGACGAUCUAACUUUAGAGGAGGAUCUGAUGGAUAUGGCAGUGGACGUGGAUUUGGGGAUGGCUAUAAUGGGUAUGGAGGAGGACCUGGGGGUGGCAAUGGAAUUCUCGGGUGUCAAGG: -0.16
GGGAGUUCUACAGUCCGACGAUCAGUCCUGUGCUACACAUCGUAUGUACCGAAUCGGAAAAAAAGGUUUUUUUGGAAAGGAAAGUAUUAUGUUACGCCGUUCGGAUCUGCACUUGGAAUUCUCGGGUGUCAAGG: -3.18
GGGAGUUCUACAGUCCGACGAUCCACACACAACACGCACCCACACAGACACAGAGGGAAGGGGUUGGGAUGGGGACAGGGUGCACAGCAGGGCGGGGUAGGACCCCAGCCCCUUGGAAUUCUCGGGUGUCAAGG: -0.0927
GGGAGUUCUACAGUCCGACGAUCGUCCUGUGCUACACAUCGUAUGUACCGAAUCGGGCCCCCGGGCCCCCGGGCCCCCGGGAAAGUAUUAUGUUACGCCGUUCGGAUCUGCACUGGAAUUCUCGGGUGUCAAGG: -1.97
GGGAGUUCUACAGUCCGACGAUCUGGCCCUGGUGGCAUGCGGGGAGGAAGAGGUGGCCUCAUGGAUCGUGGUGGUCCCAGUGGAAUGUUCAGAGGUGGCCGUGGUGGAGACAGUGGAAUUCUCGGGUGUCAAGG: 0.467

Mixed results
PhoQ, residues 284 288 289 292 302 303 TLASMF — fold induction (PhoP, residues 12 14 15 18 19 YHFSH (Escherichia coli, UniProt P23836); Sort-seq, refers to: YFP reporter; E. coli; PhoQ-PhoP variant library, together with: 10 µM Mg2+; relative to: high Mg2+ state, higher = stronger signaling): 2.93

Excerpt of the above (set 4):
N8F: 0.269
F9C: -0.171
R4D: 0.351
R4H: 0.0827
S6K: 3.59
G11N: 0.766
R4I: 1.75
S1P: 0.411
